Measured values pooled from the literature.
Each numbered part is a random draw from the data of one study; scales do not carry over between parts.

Block 1
Target: Sal-like protein 4, full length isoform B (SALL4, Homo sapiens, UniProt Q9UJQ4-2, residues 1-616)
Technique: universal PBM
Molecule type: double-stranded DNA, one strand shown
Medium: in vitro
Tested at: not given
Notes: 8-mer, flanks averaged, mean of replicates
Reading: higher = stronger binding
Endpoint: E-score
Residues (chain): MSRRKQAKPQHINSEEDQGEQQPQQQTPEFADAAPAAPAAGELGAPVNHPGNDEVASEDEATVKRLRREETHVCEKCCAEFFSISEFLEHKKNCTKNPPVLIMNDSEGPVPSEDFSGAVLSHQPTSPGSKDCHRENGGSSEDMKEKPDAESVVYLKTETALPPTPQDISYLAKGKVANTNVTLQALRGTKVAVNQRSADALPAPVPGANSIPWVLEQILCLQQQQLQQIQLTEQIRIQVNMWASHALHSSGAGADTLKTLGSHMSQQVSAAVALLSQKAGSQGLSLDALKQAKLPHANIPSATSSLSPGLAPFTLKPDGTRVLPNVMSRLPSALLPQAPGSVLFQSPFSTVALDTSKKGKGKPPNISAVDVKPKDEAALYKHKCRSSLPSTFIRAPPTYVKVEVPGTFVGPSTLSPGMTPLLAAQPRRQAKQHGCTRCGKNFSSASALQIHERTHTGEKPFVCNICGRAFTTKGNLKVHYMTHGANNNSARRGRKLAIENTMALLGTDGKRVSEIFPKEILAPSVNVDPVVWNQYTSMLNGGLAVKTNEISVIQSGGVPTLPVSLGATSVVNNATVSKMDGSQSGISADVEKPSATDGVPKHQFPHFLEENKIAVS
AACGAATA: 0.199
CTGAAGCC: -0.253
CGCTACGC: -0.24
ATTCCGCA: -0.0644
ACGAGGAA: 0.0551
CTCCTATC: -0.0282
TCGTGCAA: 0.132
CAACTCCG: -0.262
CAACAACC: -0.0253
GATGGTCA: -0.0782
TACCGATA: 0.121
CGATGCTA: 0.0586
GACACCTC: -0.243
GTAGAGTA: 0.121
CTGCACAG: -0.285
CACCAGCC: -0.265
AAGCAGCG: -0.151

Block 2
Target: Histone acetyltransferase KAT6A, both winged helices, GST fusion (KAT6A, Homo sapiens, UniProt Q92794, residues 1-181)
Technique: protein binding microarray
Molecule type: double-stranded DNA, one strand shown
Medium: in vitro
Tested at: not given
Notes: 8-mer, flanks averaged, mean of 2 arrays, mostly near background
Relative to: not given
Reading: higher = stronger binding
Endpoint: E-score
Residues (chain): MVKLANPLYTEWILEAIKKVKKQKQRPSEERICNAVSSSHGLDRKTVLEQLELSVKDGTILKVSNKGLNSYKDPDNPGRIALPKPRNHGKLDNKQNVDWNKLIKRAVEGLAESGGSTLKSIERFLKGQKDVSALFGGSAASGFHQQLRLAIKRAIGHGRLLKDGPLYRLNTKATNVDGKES
GGATTTAA: 0.102
CGGGGAAC: 0.179
CGTGAGGA: 0.0928
AAGGCAGG: -0.25
CATCCCTA: -0.141
CGTGTAGA: 0.136
GACAGACC: -0.123
AACTACTG: -0.0383
GATTGACC: 0.0621
CATCCATC: -0.121
TACAAAGA: -0.0526
CCGGCAAG: 0.251
ATGGACAT: -0.101
CTAGACTA: -0.062
CTATGGTA: 0.0218
CCTTAACA: -0.0193
GCGGACAC: 0.228
AGTTAATG: -0.209
CCGAGCAG: 0.071
CGCCTAAC: 0.143
ACAAGGTA: -0.0934
CCGGATTC: 0.0431
ACCGCTGA: 0.144
CCGCATCG: 0.192
CTACGGTC: 0.0703

Block 3
Target: Fragile X messenger ribonucleoprotein 1, C-terminal low-complexity region (Fmr1, Mus musculus, UniProt P35922)
Technique: RNA Bind-n-Seq
Molecule type: RNA
Medium: in vitro
Tested at: 200 nM
Notes: whole 134-nt RNA, ends assumed
With: 150 mM KCl
Relative to: input library
Reading: higher = stronger binding
Endpoint: log2 enrichment
Constant ends, left off below: GGGAGUUCUACAGUCCGACGAUC … UGGAAUUCUCGGGUGUCAAGG
CAAGUCCUGUGCUACACAUCGUAUGUACCGAAUCGGGGAGGGGUGGGGAAAGGGGAAAGUAUUAUGUUACGCCGUUCGGAUCUGCACUUC: 1.32
UCAAGUCCUGUGCUACACAUCGUAUGUACCGAAUCGGAAAGGAAAGGGGAAAGGAAAGUAUUAUGUUACGCCGUUCGGAUCUGCACUUCC: -0.439
AAGUCCUGUGCUACACAUCGUAUGUACCGAAUCGGUUUUUGGUUUUUUUGGAAAGGAAAGUAUUAUGUUACGCCGUUCGGAUCUGCACUU: -1.07
UGGCCCUGUUGGCAUGCGGGGAGGAAGAGGUGGCCUCAUGGAUCGUGGUGGUCCCGGUGGAAUGUUCAGAGGUGGCCGUGGUGGAGACAG: -0.0981
AAGUCCUGUGCUACACAUCGUAUGUACCGAAUCGGCCCCGGGGCCCCGGGCCCCGGGAAAGUAUUAUGUUACGCCGUUCGGAUCUGCACU: -0.392
UUUCUUCUGCUGCUGCUAGUCAUGAGAUCAAGGUGGGUCUGAGAAUGGCCAUUCAGAGGCCCUGGAUAGUAACCAGGUAAUGGAUGACAC: -0.661
UGCGAGGUGGAUUUUGUUUAUUUUUUUAGCUCAUUUCCAGGGGUGGGAAUUUUUUUUUAAUAUGUGUCAUGAAUAAAGUUGUUUUUGAAA: -0.0434
GCAGGAAGUAAAAACAAAUGAAAAUGCUUCGGAUAGUGGCAGGGGUGGGGGUUGCUAAGGAAAGGGUGGGAUGGGAGUGGGUAAAGAGUU: 0.2
GUCCUGUGCUACACAUCGUAUGUACCGAAUCGGGUGGGUUUUUUUGGGUUUUUUUGGGAAAGUAUUAUGUUACGCCGUUCGGAUCUGCAC: 0.394
ACCAUGCAGGUGGGCAUCUUUGGGAAGUGGGGCAAGGGGGGGAUAGGGAGGGGGGUAAAACUUUGGGAACAGGUGGUCCCAGGUCGUUUC: 0.585
GUCCUGUGCUACACAUCGUAUGUACCGAAUCAAACCCCCAAACCCAAACCCCCCCAAAAAAGUAUUAUGUUACGCCGUUCGGAUCUGCAC: -0.525
UGGCCCUGGUGGCAUGCGGGGAGGAAGAGGUGGCCUCAUGGAUCGUGGUGGUCCCGGUCGAAUGUUCAGAGGUGGCCGUGGUGGAGACAG: -0.343
AAGUCCUGUGCUACACAUCGUAUGUACCGAAUCGGGAAAAAGGGAGGGUUUUUGGGAAAGUAUUAUGUUACGCCGUUCGGAUCUGCACUU: 0.692
GUCCUGUGCUACACAUCGUAUGUACCGAAUCGGGUUUUUUUGGGUGGGUUUUUUUGGGAAAGUAUUAUGUUACGCCGUUCGGAUCUGCAC: 0.484

Block 4
Target: RNA binding protein fox-1 homolog 2, RRM domain, GST-SBP tag (RBFOX2, Homo sapiens, UniProt O43251-10, residues 100-194)
Technique: RNA Bind-n-Seq
Molecule type: RNA
Medium: in vitro
Tested at: 365 nM
Notes: natural RNA segment, single round, ends assumed
Relative to: no-protein control
Reading: higher = stronger binding
Endpoint: RBNS enrichment (R)
Constant ends, left off below: GGGAGUUCUACAGUCCGACGAUC … UGGAAUUCUCGGGUGCCAA
Construct (chain): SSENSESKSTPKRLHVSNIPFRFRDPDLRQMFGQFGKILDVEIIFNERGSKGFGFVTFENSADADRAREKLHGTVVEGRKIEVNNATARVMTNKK
CUGCGGGGGGAGGACACACGGAUGCUCAGGCCCAGGCUUUGCCAGGUCCGAAGCGGGCCCCUCUCUGUCCUGCCUCUUUUCACCUGCUCACGCCCUCCCACCCCCACCCU: 0.219
GUGAUUUGAAAAAUACUCAUUCUGAACAUAUCCAUGCGCAAUCAUGAUAACUGUUGUGAGUAGUGCUUUUCAUUCUUCUCACUUGCCUUUGUUACUUAAUGUGCUUUCAG: 0.285
UCAGAUUCCCAGUAAACACCUCUGUAGGGGAUGAAGUUUCCAUGUCCCCCAUCUUCCUUUUGGUCACCUUCAUCUGUGUGUCAGUUAAGACACAGUGAGGGACAGCCCAG: 0.293
GGACUAAAGGACGGAGGCCGCCCCACCCCCUUCCCUUUCCUCCAAACCCCUAACUCCCUCCAGACACCCAGGGAAUACCCUCUGCCCCACAGGAUUGAAGACUGCUUGGC: 0.513
GUGGAACCAUAAAGUCCCCAUCUCAAAGUGUGCCUGUGGGACAGGGUUAGUAGCUACUCCCCGAGGCCCCAACCCGGGAAAUACUGCAGUGUUCCUUCCUGCAGGCCUUG: 0.374
ACUCUAAGCUCCCACCUAAUAAGAAGCAUAGGCAGACCAGCCAGAGGGAGAGCCAAUGGCCUCUGGUAGCCUUAAGCCCAAAGGGCAGUGGGAAUGUCCCCUGCCCCAAC: 0.499
CCCCUCUUACUUUUUCUCUUGUGGAACUUGGCCACAGUUUCUGAACAAUGUGCCUACAUUACCAGCUGGCUUCAGUGAUUCCUCUGUGUCCCUUUUUGGUUUCUGGAAAG: 0.744
ACAGCUCUUCUUGCUUAGUGCGGAACCCAGGGAGCUGCUCAGACUUCCACCAAAGCAAAUCUGGCUCCUUCUUUAGAGAGAAGCCUACGUGGCGACUGCUCUUAUUUAAG: 0.297
AGUGUUGAUGGAAGAAAUCAUUUUUAAUGUGUACUGUAAAACUUGAAAUACUCAGGAGCUGAGUGAGUAUGUUUGUUGCUACUUACAAUCCCAACCUGUUAGUCCCAGUA: 0.425
UGCUGUGUGGGUACUCCAAGUGCUGACUUAGGAUAUUAAUGUGCUGCAACACAUUUGUCACCAGGCUUUGAAGGUGACAGCCUGACAAUGUGUUGGAGACACUUCUGAAG: 4.18
AGCAAGCUACAAAGAGGGUGUGUCACACUGAAACUCAAUAGUUGAGUUUGGCUGUUGUUGCAGGAAAAUGAUUAUAACUAAAAGCUCUCUGAUAGUGCAGAGACUUACCA: 0.38
CAGAUGGCUGUACAACAGGUUGUAGGGCUGGUAGUAUGAGGUGCUUGGGAAGUUUUGUUGGGUCAAGAAGAGAGAACUCUGUUCUCGCACCACCGGGAUCUGUCCUGCAA: 1.14

Block 5
Target: Interferon regulatory factor 7, full length, phosphomimetic (IRF7, Homo sapiens, UniProt Q92985, residues 1-503, S471D/S472D/S475D/S476D/S477D/S483D/S484D/S487D)
Technique: protein-binding microarray
Molecule type: double-stranded DNA, one strand shown
Medium: in vitro
Tested at: 2200 nM top
Notes: 60-bp whole probe
With: salmon DNA 0.4 mg/ml
Relative to: random background probes
Reading: higher = stronger binding
Endpoint: fitted relative affinity
Constant ends, left off below: GCCTAGCAC … GTCTTGATTCGCTTGACGCTGCTG
Target sequence (chain): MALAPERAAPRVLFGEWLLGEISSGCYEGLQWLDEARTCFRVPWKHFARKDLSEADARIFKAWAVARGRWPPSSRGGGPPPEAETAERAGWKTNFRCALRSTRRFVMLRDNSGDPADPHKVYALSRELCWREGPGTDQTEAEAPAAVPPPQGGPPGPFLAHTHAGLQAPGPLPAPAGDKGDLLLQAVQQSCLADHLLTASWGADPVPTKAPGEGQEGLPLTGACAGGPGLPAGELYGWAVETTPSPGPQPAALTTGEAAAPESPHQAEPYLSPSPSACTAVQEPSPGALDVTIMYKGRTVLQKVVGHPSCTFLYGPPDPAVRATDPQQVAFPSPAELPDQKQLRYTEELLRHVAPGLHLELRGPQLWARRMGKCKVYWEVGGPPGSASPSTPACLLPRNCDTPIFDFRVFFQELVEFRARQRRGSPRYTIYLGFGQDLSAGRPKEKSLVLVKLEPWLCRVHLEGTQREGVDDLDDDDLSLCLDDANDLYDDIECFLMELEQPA
TAAGGTATCCTTTTCCTTTAGTGCTAG: 1.5 z-score
CTAGGACTGCTACTGCTTTAGTGCTAG: -0.296 z-score
GACGAACTGAGTATCGAGACGTGCTAG: -0.183 z-score
GGACTCACCTAGTTTCATTCCGTGCTA: 3.32 z-score
TCAGCCCTCCCTGTGGGACTGTGCTAG: -1 z-score
TTAGAACTGAGACTGAATTAGTGCTAG: -0.93 z-score
GGCGGACTGGGACTGGGGACGTGCTAG: -1.42 z-score
TTAGATATGAGTTTCGATTAGTGCTAG: 3.73 z-score
TCACTTTTCTGTTGTCTGACTGTGCTA: 5.02 z-score
GGCGGTTTCGACTATCGGGACGTGCTA: 3.15 z-score
AGCAAAAATGATTGGTTGAAGTGCTAG: -1.06 z-score
GACGAACTAAGTCTCGAGACGTGCTAG: -0.0368 z-score
TCAGAATTCAGAATGGGACTGTGCTAG: -0.449 z-score
TTAGGTCTCCTACTGCTTTGGTGCTAG: 0.616 z-score
GACGGACTGCTTCTCTTGACGTGCTAG: 0.547 z-score
TCATTTTTTTTTTCATCATTGTGCTAG: 2.45 z-score
TTAGTTTTCGGTCTCGGTTAGTGCTAG: 7.18 z-score
TTCAATTTTTGCATCGTAAGGTGCTAG: 1.37 z-score
TTAGAACTGGGTACTGGATTAGTGCTA: -0.527 z-score
TTAGAACTGTGTCTCGATTAGTGCTAG: 0.0323 z-score
GACGAATTCAGTATCGAGACGTGCTAG: 0.247 z-score
AAGTGTTTGGTGTCTTTTGTGGTGCTA: 0.65 z-score

Excerpt of the above (block 2):
AGTTAATG: -0.209
CCGAGCAG: 0.071
CGCCTAAC: 0.143
ACAAGGTA: -0.0934
CCGGATTC: 0.0431
ACCGCTGA: 0.144
CCGCATCG: 0.192
CTACGGTC: 0.0703
